Measurements from different studies.
Protocols differ between the studies behind these lines. ± marks the error that the study gave. Values after ≈ are worked out from the molar mass of the structure shown.

CC/C=C\C/C=C\C/C=C\C/C=C\C/C=C\C/C=C\CCC(=O)Nc1ccn(C2OC(CO)C(O)C2(F)F)c(=O)n1 (stereo not drawn) — CC50 (MOLT-4; NCI60 screen): 93.1 µM
COC[C@@H](NC(C)=O)C(=O)NCc1ccc(N=[N+]=[N-])cc1 — current recovery (voltage-gated sodium channel; sodium current, whole-cell patch clamp; CAD; 40 µM, 5 min washout, test potential -10 mV, with: UV irradiation; baseline: pre-drug current): 79%
CC[C@H](C)[C@H](NC(=O)[C@H](C)NC(=O)[C@H](CCC(=O)O)NC(=O)[C@H](CCC(=O)O)NC(=O)[C@H](CC(C)C)NC(=O)[C@H](CCCCN)NC(=O)[C@H](CCCCN)NC(=O)[C@H](CCSC)NC(=O)[C@H](CCC(=O)O)NC(=O)[C@H](Cc1ccc(O)cc1)NC(=O)[C@H](CCC(=O)O)NC(=O)[C@H](CC(C)C)NC(=O)[C@H](CC(=O)O)NC(=O)[C@H](CC(C)C)NC(=O)[C@H](Cc1ccccc1)NC(=O)[C@@H](NC(=O)[C@@H](NC(=O)[C@@H](N)CC(N)=O)C(C)C)[C@@H](C)O)C(=O)N[C@@H](CCCCN)C(=O)N[C@@H](CCCCN)C(=O)N[C@@H](CC(C)C)C(=O)N[C@@H](CCC(=O)O)C(=O)N[C@@H](CCC(=O)O)C(=O)N[C@@H](CO)C(=O)N[C@@H](Cc1ccc(O)cc1)C(=O)N[C@H](C(=O)N[C@@H](CC(=O)O)C(=O)N[C@@H](CC(C)C)C(=O)N[C@@H](CCCCN)C(=O)N[C@@H](CCC(=O)O)C(=O)N[C@@H](CC(C)C)C(=O)NCC(=O)N[C@H](C(=O)N[C@@H](Cc1ccc(O)cc1)C(=O)N[C@@H](CCC(=O)O)C(=O)N[C@@H](Cc1ccc(O)cc1)C(=O)NCC(=O)N[C@@H](CO)C(=O)NCC(=O)N[C@@H](CSCC(=O)O[C@H]1CC[C@@]2(C)C(=CC[C@H]3[C@@H]4CC[C@H]([C@H](C)CCCC(C)C)[C@@]4(C)CC[C@@H]32)C1)C(N)=O)[C@@H](C)O)[C@@H](C)CC — IC50 (HCoV-NL63; viral entry; pseudotyped virus): 0.035 µM
COc1ccc(-c2ccn(CC[C@](C)(C(=O)NO)S(C)(=O)=O)c(=O)c2)c(F)c1 — MIC90 (Burkholderia cepacia): 0.5 µg/mL (≈ 1.21 µM)
CONC(=O)[C@@H]1[C@H](O)[C@]2(O)c3c(OC)cc(OC)cc3O[C@]2(c2ccc(OC)cc2)[C@H]1c1ccccc1 — nucleocapsid protein level (Human coronavirus 229E; concentration not given): no effect
CN(C)CC12C3CCC4C3C3C(CCC31)C42 — EC50 (Influenza A virus; viral replication; MDCK, H3N2 A/HK/7/87): > 100 µM
Cc1cccc(-c2nc(Nc3ccncn3)c3sccc3n2)n1 — MIC (Haemophilus influenzae; broth microdilution; H128 AcrA-): 0.5 µM
CC[C@H](C)[C@H](NC(=O)[C@H](CCC(N)=O)NC(=O)[C@@H]1CCCN1C(=O)[C@@H](NC(=O)[C@@H](NC(=O)[C@H](Cc1ccc(O)cc1)NC(=O)[C@H](C)NC(=O)[C@H](C)NC(=O)[C@H](CC(C)C)NC(=O)[C@H](CCCCN)NC(=O)[C@H](C)NC(=O)[C@H](CC(C)C)NC(=O)[C@H](CC(C)C)NC(=O)CNC(=O)[C@@H](NC(=O)[C@@H](N)Cc1ccccc1)C(C)C)C(C)C)[C@@H](C)CC)C(=O)N[C@H](C(=O)N[C@@H](CCCCN)C(=O)N[C@@H](CCCNC(=N)N)C(=O)N[C@@H](Cc1ccccc1)C(=O)N[C@@H](CCC(N)=O)C(=O)N[C@@H](CCCCN)C(=O)N[C@@H](CCCCN)C(=O)N[C@@H](CCCCN)C(N)=O)C(C)C — MIC (Aspergillus flavus; ATP luminescence; ATCC 9170; 48 h, 37 °C): > 50 µM
NCC12C3CCC4C3C3C(CCC31)C42 — EC50 (Influenza A virus; viral replication; MDCK, H3N2 A/HK/7/87): > 100 µM
CCc1ccc([C@@H]2C[C@H](C(F)(F)F)n3ncc(C(=O)NCc4ccc(OC)cc4)c3N2)cc1 — MIC (Haemophilus influenzae; microbial growth, broth dilution; H128): 64 µM
COc1cc(/C=C/C(=O)/C=C/c2ccc(O)c(OC)c2)ccc1O — IC50 (human immunodeficiency virus 1; viral replication; VSV-G pseudotyped pNL4-3 virus): 0.8 µM
Cc1ccc2nc(C(F)(F)F)c(C(=O)NCc3cccc(Cl)c3)n2c1 — MIC (Haemophilus influenzae; microbial growth, broth dilution; H128): 64 µM
C1CC2C3C4C5CCC4C24CNCC54C13 — EC50 (Influenza A virus; viral replication, inhibitor; H3N2): > 100 µM
Cc1ccc2nc(C)c(C(=O)NCc3cccs3)n2c1 — MIC (Haemophilus influenzae; broth microdilution; H128 AcrA-): > 64 µM
CCCCCC(=O)NCC(=O)N[C@@H](CC(C)C)C(=O)N[C@@H](CC(C)C)C(=O)N[C@@H](CCCCN)C(=O)N[C@@H](CCCNC(=N)N)C(=O)N[C@H](C(=O)N[C@@H](CCCCN)C(=O)N[C@H](C(=O)N[C@@H](CC(C)C)C(=O)N[C@@H](CC(C)C)C(=O)NCCCC[C@H](NC(=O)[C@H](CC(C)C)NC(=O)[C@H](CC(C)C)NC(=O)[C@@H](NC(=O)[C@H](CCCCN)NC(=O)[C@@H](NC(=O)[C@H](CCCNC(=N)N)NC(=O)[C@H](CCCCN)NC(=O)[C@H](CC(C)C)NC(=O)[C@H](CC(C)C)NC(=O)CNC(=O)CCCCC)[C@@H](C)CC)[C@@H](C)O)C(N)=O)[C@@H](C)O)[C@@H](C)CC — FIC index (Klebsiella pneumoniae; checkerboard; ATCC 700603; with: rifampicin): 0.25
CC(C)C1=C[C@@]23CC[C@@H]4[C@](C)(CCC[C@@]4(C)C(=O)NCC#CCN4CCCNCC4)[C@H]2C[C@@H]1C1=C3C(=O)C=CC1=O — IC50 (Influenza A virus; viral replication; MDCK, A/Puerto Rico/8/34 (H1N1)): 0.19 µM
CCCCCCCC(=O)NCC(=O)N[C@@H](CC(C)C)C(=O)N[C@@H](CC(C)C)C(=O)N[C@@H](CCCCN)C(=O)N[C@@H](CCCNC(=N)N)C(=O)N[C@H](C(=O)N[C@@H](CCCCN)C(=O)N[C@H](C(=O)N[C@@H](CC(C)C)C(=O)N[C@@H](CC(C)C)C(N)=O)[C@@H](C)O)[C@@H](C)CC — FIC index (Klebsiella pneumoniae; checkerboard; ATCC 700603; with: gentamicin): 0.562
CC[C@H](C)[C@@H]1NC(=O)[C@H](CC(C)C)NC(=O)[C@@H](NC(=O)[C@H](CO)NC(=O)[C@H](CCCNC(=N)N)NC(=O)[C@@H](N)CO)CSSC[C@H](NC(=O)[C@H](CO)NC(=O)[C@H](CCCNC(=N)N)NC(=O)[C@@H](N)CO)C(=O)N[C@@H](CC(C)C)C(=O)N[C@@H]([C@@H](C)CC)C(=O)N[C@@H](C(C)C)C(=O)N[C@H](C(=O)N[C@@H](CCC(N)=O)C(=O)N[C@@H](CCCNC(=N)N)C(=O)N[C@@H](CC(C)C)C(=O)N[C@@H](Cc2ccccc2)C(N)=O)CSSC[C@@H](C(=O)N[C@@H](CCC(N)=O)C(=O)N[C@@H](CCCNC(=N)N)C(=O)N[C@@H](CC(C)C)C(=O)N[C@@H](Cc2ccccc2)C(N)=O)NC(=O)[C@H](C(C)C)NC1=O — MIC (Listeria monocytogenes; broth microdilution; ATCC BAA-679 (EGD-e)): 50 µg/mL
CNc1nc(SC)nc2ccccc12 — MIC (Haemophilus influenzae; microbial growth, broth dilution; H128): > 64 µM
CN[C@H](CC(C)C)C(=O)N[C@H]1C(=O)N[C@@H](CC(N)=O)C(=O)N[C@H]2C(=O)N[C@H]3C(=O)N[C@H](C(=O)N[C@H](C(=O)O)c4cc(O)cc(O)c4-c4cc3ccc4O)[C@H](O)c3ccc(c(Cl)c3)Oc3cc2cc(c3O)Oc2ccc(cc2Cl)[C@H]1O — EC50 (Influenza A virus H3N2; viral replication; MDCK, X-31; 72 h): 58 ± 22 µM
C[C@@](O)(C(F)F)[C@H](NC(=O)c1ccc(C#CC#CC2CC2)cc1)C(=O)NO — MIC90 (Burkholderia cepacia; agar dilution; clinical isolates): 0.25 µg/mL (≈ 0.664 µM)
COc1ccc2nc(C)cc(OCC(=O)Nc3ccccc3OC)c2c1 — MIC (Haemophilus influenzae; broth microdilution; H128 AcrA-): 32 µM
CC[C@H](C)[C@H](NC(=O)[C@@H](NC(=O)[C@H](CCCCN)NC(=O)[C@H](CC(=O)O)NC(=O)[C@H](CCCCN)NC(=O)[C@H](Cc1ccccc1)NC(=O)[C@H](Cc1ccccc1)NC(=O)[C@H](CO)NC(=O)[C@H](CCCCN)NC(=O)[C@H](CCSC)NC(=O)[C@H](CCCCN)NC(=O)[C@H](CCCCN)NC(=O)[C@H](Cc1c[nH]c2ccccc12)NC(=O)[C@@H](N)Cc1ccccc1)C(C)C)C(=O)N1CCC[C@H]1C(=O)N[C@@H](CCCCN)C(=O)N[C@H](C(=O)N[C@@H](CCC(N)=O)C(=O)N[C@@H](CCC(N)=O)C(=O)N[C@@H](C)C(=O)N[C@@H](Cc1ccc(O)cc1)C(=O)N[C@@H](CO)C(=O)N[C@@H](CC(C)C)C(=O)N[C@@H](Cc1ccc(O)cc1)C(=O)N[C@@H](CC(N)=O)C(=O)N[C@@H](CCCCN)C(=O)N[C@@H](CC(C)C)C(=O)N[C@@H](CCC(N)=O)C(=O)N[C@@H](Cc1c[nH]cn1)C(=O)N[C@@H](CCCCN)C(=O)N[C@@H](CC(C)C)C(N)=O)C(C)C — MIC (Aspergillus flavus; ATP luminescence; ATCC 9170; 48 h, 37 °C): > 50 µM
CCCCCCCCC(=O)NCc1ccc(O)c(OC)c1 — IC50 (mAb 2-LD2; antibody binding, indirect competitive ELISA; with: coating antigen hapten 2-OVA): 0.0017 µg/mL
CN1CC23C4C5CC5C5C4C4C2C2CC2C4C53C1 (stereo not drawn) — EC50 (Influenza A virus; viral replication; MDCK, H3N2 A/HK/7/87): > 100 µM
CCC[C@H](NC(=O)[C@H](CC(C)C)NC(=O)OCc1ccccc1)C(=O)C(=O)NCc1ccccn1 — EC50 (human coronavirus NL63; viral replication): 0.73 ± 0.12 µM
CN[C@](C)(C[18F])C(=O)O — tracer uptake (MDA-MB-468 tumour model; host not given, heart; 15 min, tumour-bearing): 3.3 %ID/g
CCCCCC(=O)NCC(=O)N[C@@H](CC(C)C)C(=O)N[C@@H](CC(C)C)C(=O)N[C@@H](CCCCN)C(=O)N[C@@H](CCCNC(=N)N)C(=O)N[C@H](C(=O)N[C@@H](CCCCN)C(=O)N[C@H](C(=O)N[C@@H](CC(C)C)C(=O)N[C@@H](CC(C)C)C(=O)NCCCC[C@H](NC(=O)[C@H](CCCCNC(=O)[C@H](CC(C)C)NC(=O)[C@H](CC(C)C)NC(=O)[C@@H](NC(=O)[C@H](CCCCN)NC(=O)[C@@H](NC(=O)[C@H](CCCNC(=N)N)NC(=O)[C@H](CCCCN)NC(=O)[C@H](CC(C)C)NC(=O)[C@H](CC(C)C)NC(=O)CNC(=O)CCCCC)[C@@H](C)CC)[C@@H](C)O)NC(=O)[C@H](CC(C)C)NC(=O)[C@H](CC(C)C)NC(=O)[C@@H](NC(=O)[C@H](CCCCN)NC(=O)[C@@H](NC(=O)[C@H](CCCNC(=N)N)NC(=O)[C@H](CCCCN)NC(=O)[C@H](CC(C)C)NC(=O)[C@H](CC(C)C)NC(=O)CNC(=O)CCCCC)[C@@H](C)CC)[C@@H](C)O)C(N)=O)[C@@H](C)O)[C@@H](C)CC — FIC index (Klebsiella pneumoniae; checkerboard; ATCC 700603; with: polymyxin B): 0.125
CC(N)C12C3CCC4C3C3C(CCC31)C42 (stereo not drawn) — EC50 (Influenza A virus; viral replication; MDCK, H1N1 A/PR/8/34): 22 µM
CCN(Cc1ccccc1)C(=O)CCc1nc(CN2CCN(C(=O)Cc3ccc(OC)c(OC)c3)CC2)no1 — onset day (thermal withdrawal threshold, Hargreaves test; mouse CCI model; 1 mg/kg, dosing from day 11): 13 days

For quick reference, copied from above:
CCc1ccc([C@@H]2C[C@H](C(F)(F)F)n3ncc(C(=O)NCc4ccc(OC)cc4)c3N2)cc1 — MIC (Haemophilus influenzae; microbial growth, broth dilution; H128): 64 µM
COc1cc(/C=C/C(=O)/C=C/c2ccc(O)c(OC)c2)ccc1O — IC50 (human immunodeficiency virus 1; viral replication; VSV-G pseudotyped pNL4-3 virus): 0.8 µM
Cc1ccc2nc(C(F)(F)F)c(C(=O)NCc3cccc(Cl)c3)n2c1 — MIC (Haemophilus influenzae; microbial growth, broth dilution; H128): 64 µM
C1CC2C3C4C5CCC4C24CNCC54C13 — EC50 (Influenza A virus; viral replication, inhibitor; H3N2): > 100 µM
